{"data": "Results from different studies", "note": "Parts stem from different laboratories: compare values within a part only. “And” joins repeats or separate records; there may be more than shown.", "chain of UniProt P23975 (whole entry, looked up)": "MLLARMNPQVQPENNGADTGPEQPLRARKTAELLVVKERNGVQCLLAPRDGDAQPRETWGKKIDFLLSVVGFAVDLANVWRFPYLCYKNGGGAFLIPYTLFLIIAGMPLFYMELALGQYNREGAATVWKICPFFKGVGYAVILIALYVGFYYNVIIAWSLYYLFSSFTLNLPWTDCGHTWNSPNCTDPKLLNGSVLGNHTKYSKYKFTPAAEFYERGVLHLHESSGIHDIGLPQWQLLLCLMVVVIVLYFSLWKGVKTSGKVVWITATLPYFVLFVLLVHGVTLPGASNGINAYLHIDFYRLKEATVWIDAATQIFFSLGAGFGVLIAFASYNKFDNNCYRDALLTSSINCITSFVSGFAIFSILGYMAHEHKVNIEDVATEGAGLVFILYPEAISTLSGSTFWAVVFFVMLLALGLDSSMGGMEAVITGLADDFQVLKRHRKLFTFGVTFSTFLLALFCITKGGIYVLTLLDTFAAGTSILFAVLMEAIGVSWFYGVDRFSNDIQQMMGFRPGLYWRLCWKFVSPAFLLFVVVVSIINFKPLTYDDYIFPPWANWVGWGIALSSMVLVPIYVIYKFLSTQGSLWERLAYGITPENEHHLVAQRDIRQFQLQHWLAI", "chain of UniProt P20309 (whole entry, looked up)": "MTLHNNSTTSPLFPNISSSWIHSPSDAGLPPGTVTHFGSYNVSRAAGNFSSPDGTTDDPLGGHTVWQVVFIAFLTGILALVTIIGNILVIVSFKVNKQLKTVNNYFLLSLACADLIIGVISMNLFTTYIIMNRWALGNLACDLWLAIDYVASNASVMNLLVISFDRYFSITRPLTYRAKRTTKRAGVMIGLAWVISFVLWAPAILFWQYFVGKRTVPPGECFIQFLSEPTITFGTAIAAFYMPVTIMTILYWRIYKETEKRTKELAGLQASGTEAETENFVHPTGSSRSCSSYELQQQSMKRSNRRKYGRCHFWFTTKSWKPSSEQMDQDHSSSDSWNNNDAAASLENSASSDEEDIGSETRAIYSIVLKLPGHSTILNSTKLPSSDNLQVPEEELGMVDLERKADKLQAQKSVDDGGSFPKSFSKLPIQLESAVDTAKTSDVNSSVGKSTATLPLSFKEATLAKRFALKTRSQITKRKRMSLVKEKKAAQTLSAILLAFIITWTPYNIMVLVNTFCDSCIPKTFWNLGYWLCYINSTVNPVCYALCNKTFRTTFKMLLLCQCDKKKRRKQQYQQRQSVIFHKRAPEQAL", "chain of UniProt P41145 (whole entry, looked up)": "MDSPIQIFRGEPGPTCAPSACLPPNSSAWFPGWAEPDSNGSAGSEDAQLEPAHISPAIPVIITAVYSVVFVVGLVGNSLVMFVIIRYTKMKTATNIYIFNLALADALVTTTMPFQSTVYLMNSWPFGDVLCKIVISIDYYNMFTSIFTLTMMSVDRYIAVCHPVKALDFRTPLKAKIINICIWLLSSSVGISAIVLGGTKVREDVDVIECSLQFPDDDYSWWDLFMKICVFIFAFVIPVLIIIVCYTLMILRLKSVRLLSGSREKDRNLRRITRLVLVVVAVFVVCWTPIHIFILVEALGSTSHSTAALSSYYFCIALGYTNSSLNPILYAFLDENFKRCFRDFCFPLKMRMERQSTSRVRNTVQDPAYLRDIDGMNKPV", "chain of UniProt Q01959 (whole entry, looked up)": "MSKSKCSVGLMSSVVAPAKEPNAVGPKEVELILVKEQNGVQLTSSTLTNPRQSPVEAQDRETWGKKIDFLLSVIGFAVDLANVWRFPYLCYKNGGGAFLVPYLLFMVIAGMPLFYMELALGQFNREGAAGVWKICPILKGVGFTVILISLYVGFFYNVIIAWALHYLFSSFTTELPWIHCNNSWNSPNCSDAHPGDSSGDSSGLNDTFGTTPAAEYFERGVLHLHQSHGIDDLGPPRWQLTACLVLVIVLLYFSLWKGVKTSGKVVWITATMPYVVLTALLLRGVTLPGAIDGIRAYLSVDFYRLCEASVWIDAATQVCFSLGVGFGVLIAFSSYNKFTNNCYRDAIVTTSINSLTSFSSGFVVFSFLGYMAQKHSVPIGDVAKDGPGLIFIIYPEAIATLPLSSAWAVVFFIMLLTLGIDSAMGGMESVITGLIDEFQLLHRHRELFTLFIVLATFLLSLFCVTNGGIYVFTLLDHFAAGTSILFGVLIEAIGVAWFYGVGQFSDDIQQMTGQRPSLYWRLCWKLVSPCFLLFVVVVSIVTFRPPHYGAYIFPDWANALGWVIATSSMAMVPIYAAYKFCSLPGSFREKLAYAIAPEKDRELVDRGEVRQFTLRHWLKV", "chain of UniProt P11229 (whole entry, looked up)": "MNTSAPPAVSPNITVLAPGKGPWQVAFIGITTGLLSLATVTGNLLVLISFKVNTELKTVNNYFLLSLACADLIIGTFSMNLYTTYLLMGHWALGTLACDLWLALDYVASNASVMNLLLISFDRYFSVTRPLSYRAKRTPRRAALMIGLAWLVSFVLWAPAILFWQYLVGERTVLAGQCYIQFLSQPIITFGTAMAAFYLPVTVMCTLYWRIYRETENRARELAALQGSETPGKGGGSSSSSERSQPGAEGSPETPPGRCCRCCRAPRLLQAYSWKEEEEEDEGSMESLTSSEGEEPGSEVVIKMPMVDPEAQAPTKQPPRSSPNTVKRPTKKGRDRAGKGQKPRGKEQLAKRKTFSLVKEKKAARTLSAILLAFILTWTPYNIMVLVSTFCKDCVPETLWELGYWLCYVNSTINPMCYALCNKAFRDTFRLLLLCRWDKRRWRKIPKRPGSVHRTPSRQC"}
{"data": "Block 1", "cell line": "HEK-293T/ACE2", "tested at": "concentration not given", "time": "16 (unit not given)", "baseline": "vehicle"}
{"Compound": "CN(C)CC(c1ccc(O)cc1)C1(O)CCCCC1 (centres unmarked)", "viability": "103%"}
{"Compound": "CCN(CC)CCNC(=O)c1ccc(N)cc1", "viability": "91.6%"}
{"Compound": "Oc1c(Cl)cc(Cl)c2cccnc12", "viability": "80.2%"}
{"Compound": "CC(CCc1ccccc1)NCC(O)c1ccc(O)c(C(N)=O)c1 (centres unmarked)", "viability": "101%"}
{"Compound": "NS(=O)(=O)c1cc2c(cc1Cl)NC(C(Cl)Cl)NS2(=O)=O (centres unmarked)", "viability": "100%"}
{"Compound": "CCN(CC)CCOC(=O)c1ccc(N)cc1", "viability": "86.6%"}
{"Compound": "CCCCCCCC(=O)N[C@H](CN1CCCC1)[C@H](O)c1ccc2c(c1)OCCO2", "viability": "94.5%"}
{"Compound": "CCCCC1=NC2(CCCC2)C(=O)N1Cc1ccc(-c2ccccc2-c2nnn[nH]2)cc1", "viability": "99.9%"}
{"Compound": "CC1=C(C/C=C(\\C)CCC[C@H](C)CCC[C@H](C)CCCC(C)C)C(=O)c2ccccc2C1=O", "viability": "97.3%"}
{"Compound": "Cc1nc2n(c(=O)c1CCN1CCC(c3noc4cc(F)ccc34)CC1)CCCC2O (centres unmarked)", "viability": "95.7%"}
{"Compound": "C=C1C[C@@H]2[C@H](CC[C@]3(C)C(=O)CC[C@@H]23)[C@@]2(C)C=CC(=O)C=C12", "viability": "101%"}
{"Compound": "Cc1cn[nH]c1", "viability": "101%"}
{"Compound": "CN(C)c1ccc(C(=C2C=CC(=[N+](C)C)C=C2)c2ccc(N(C)C)cc2)cc1", "viability": "83.6%"}
{"Compound": "O=C1[C@H](CC[C@H](O)c2ccc(F)cc2)[C@@H](c2ccc(O)cc2)N1c1ccc(F)cc1", "viability": "101%"}
{"Compound": "CC(C)C(=O)Nc1ccc([N+](=O)[O-])c(C(F)(F)F)c1", "viability": "98.3%"}
{"Compound": "C[N+]1(C)[C@@H]2C[C@@H](OC(=O)[C@H](CO)c3ccccc3)C[C@H]1[C@@H]1O[C@@H]12", "viability": "103%"}
{"Compound": "CCCCc1nc(Cl)c(CO)n1Cc1ccc(-c2ccccc2-c2nn[nH]n2)cc1", "viability": "99.5%"}
{"data": "Block 2", "SMILES": "O=C(NCc1ncc(C(F)(F)F)cc1Cl)c1ccc2c(c1)C1(CCS(=O)(=O)CC1)[C@@H](C1CC1)N2S(=O)(=O)c1ccc(F)cc1", "tested at": "10 µM"}
{"target": "Kappa-type opioid receptor (OPRK1, Homo sapiens, UniProt P41145)", "assay": "ligand displacement", "inhibition [%]": 4.54}
{"target": "Muscarinic acetylcholine receptor M3 (CHRM3, Homo sapiens, UniProt P20309)", "assay": "ligand displacement", "inhibition [%]": 14.4}
{"target": "Sodium-dependent noradrenaline transporter (SLC6A2, Homo sapiens, UniProt P23975)", "assay": "cell-free assay", "inhibition [%]": 3.76}
{"target": "Muscarinic acetylcholine receptor M1 (CHRM1, Homo sapiens, UniProt P11229)", "assay": "ligand displacement", "inhibition [%]": -3.7}
{"target": "Sodium-dependent dopamine transporter (SLC6A3, Homo sapiens, UniProt Q01959)", "assay": "cell-free assay", "inhibition [%]": -4.64}
{"data": "Block 3", "organism": "Sarcocystis neurona", "observed": "parasite growth", "tested at": "10 µM", "setting": "secondary screen"}
{"Structure (SMILES)": "CCC1(c2ccc(N)cc2)CCC(=O)NC1=O (centres unmarked)", "inhibition [%]": -30.8}
{"Structure (SMILES)": "CN1C(=O)CN=C(c2ccccc2)c2cc(Cl)ccc21", "inhibition [%]": -27.7}
{"Structure (SMILES)": "COc1ccc2[nH]cc(CCN)c2c1", "inhibition [%]": -33.2}
{"Structure (SMILES)": "CC(C)[C@]12O[C@H]1[C@@H]1O[C@]13[C@]1(O[C@H]1C[C@H]1C4=C(CC[C@@]13C)C(=O)OC4)[C@@H]2O", "inhibition [%]": 82.2}
{"Structure (SMILES)": "CCCC(C)(COC(N)=O)COC(=O)NC(C)C (centres unmarked)", "inhibition [%]": -32.8}
{"Structure (SMILES)": "O=C1Nc2ccc(Cl)cc2C(c2ccccc2Cl)=NC1O (centres unmarked)", "inhibition [%]": -8.6}
{"Structure (SMILES)": "O=C1CC[C@@]2(O)[C@H]3Cc4ccc(O)c5c4[C@@]2(CCN3CC2CC2)[C@H]1O5", "inhibition [%]": -38.4}
{"Structure (SMILES)": "CC(C)CC(N(C)C)C1(c2ccc(Cl)cc2)CCC1.Cl (centres unmarked)", "inhibition [%]": -42.6}
{"data": "Block 4", "Compound": "CNCc1ccc(-c2[nH]c3cc(F)cc4c3c2CCNC4=O)cc1", "setting": "unit not given", "baseline": "untreated"}
{"cell line": "RPE-1 BRCA1-/-", "setting": "1 µM", "clonogenic survival": 0}
{"cell line": "RPE-1 BRCA1-/-", "setting": "0.5 µM", "clonogenic survival": 0}
{"cell line": "RPE-1 BRCA1-/-", "setting": "0.25 µM", "clonogenic survival": "0 and 0.0068"}
{"cell line": "RPE-1 BRCA2-/-", "setting": "1 µM", "clonogenic survival": "0 and 0.00885"}
{"cell line": "RPE-1 BRCA2-/-", "setting": "0.25 µM", "clonogenic survival": "0 and 0.0133"}
{"cell line": "RPE-1 BRCA2-/-", "setting": "0.5 µM", "clonogenic survival": 0}
{"cell line": "RPE-1 BRCA1-/-", "setting": "0.1 µM", "clonogenic survival": "0.0106 and 0.0417 and 0.0068"}
{"cell line": "RPE-1 BRCA1-/-", "setting": "0.01 µM", "clonogenic survival": "0.127 and 0.312 and 0.068"}
